# Assay results collected from several papers.
# Values joined by “and” are separate records of one study, mostly repeats; a detail may differ. Numbers after ± are the reported error.
# Chain of UniProt Q53GS9 (whole entry, looked up): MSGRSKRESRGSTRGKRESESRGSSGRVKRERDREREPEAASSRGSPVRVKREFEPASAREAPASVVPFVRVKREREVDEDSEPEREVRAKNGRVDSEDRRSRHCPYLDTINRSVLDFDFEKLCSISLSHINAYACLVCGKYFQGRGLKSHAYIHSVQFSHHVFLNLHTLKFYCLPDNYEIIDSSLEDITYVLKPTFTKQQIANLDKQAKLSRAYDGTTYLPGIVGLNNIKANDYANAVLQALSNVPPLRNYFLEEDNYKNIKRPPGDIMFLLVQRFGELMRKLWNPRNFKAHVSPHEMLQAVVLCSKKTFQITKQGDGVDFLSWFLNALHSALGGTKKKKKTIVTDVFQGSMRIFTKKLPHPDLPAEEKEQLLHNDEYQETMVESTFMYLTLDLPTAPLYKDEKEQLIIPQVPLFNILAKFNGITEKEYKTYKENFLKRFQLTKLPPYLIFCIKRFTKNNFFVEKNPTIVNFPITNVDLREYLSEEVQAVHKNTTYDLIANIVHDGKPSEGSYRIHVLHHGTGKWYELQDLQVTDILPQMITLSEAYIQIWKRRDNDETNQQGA
# Chain of UniProt Q70CQ1 (whole entry, looked up): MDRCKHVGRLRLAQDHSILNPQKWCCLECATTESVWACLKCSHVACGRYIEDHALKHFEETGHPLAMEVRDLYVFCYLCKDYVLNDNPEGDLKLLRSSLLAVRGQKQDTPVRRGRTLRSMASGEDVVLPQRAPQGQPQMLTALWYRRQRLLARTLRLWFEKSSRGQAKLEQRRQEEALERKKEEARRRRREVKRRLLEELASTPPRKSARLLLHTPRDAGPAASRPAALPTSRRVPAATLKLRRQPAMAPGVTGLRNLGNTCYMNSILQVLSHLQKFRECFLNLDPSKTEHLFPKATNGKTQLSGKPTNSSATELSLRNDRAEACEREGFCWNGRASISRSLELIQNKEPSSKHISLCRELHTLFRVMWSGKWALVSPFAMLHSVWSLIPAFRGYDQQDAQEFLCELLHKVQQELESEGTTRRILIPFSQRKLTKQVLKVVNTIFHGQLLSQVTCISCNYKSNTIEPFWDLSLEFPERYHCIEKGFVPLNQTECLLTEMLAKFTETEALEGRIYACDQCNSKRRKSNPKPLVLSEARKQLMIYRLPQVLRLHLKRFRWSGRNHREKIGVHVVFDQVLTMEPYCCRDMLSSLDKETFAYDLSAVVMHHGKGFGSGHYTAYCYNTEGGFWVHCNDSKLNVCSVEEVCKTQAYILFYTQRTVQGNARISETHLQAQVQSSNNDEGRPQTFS
Compound,tested on,test,system,setting,scale,endpoint,result
CC(C)[C@H](NC(=O)[C@H](Cc1ccc(O)cc1)NC(=O)[C@H](Cc1ccc(O)cc1)NC(=O)[C@@H]1CCCN1C(=O)[C@H](CCC(=O)O)NC(=O)[C@H](CCC(=O)O)NC(=O)[C@H](Cc1c[nH]c2ccccc12)NC(=O)[C@@H]1CCCN1C(=O)[C@@H](NC(=O)[C@H](CCC(N)=O)NC(=O)c1ccc2c(c1)C(=O)OC21c2ccc(O)cc2Oc2cc(O)ccc21)C(C)C)C(=O)N[C@H](C(=O)N[C@@H](CCCCN)C(=O)N[C@@H](CCCCN)C(=O)N[C@@H](CO)C(=O)N[C@@H](CO)C(=O)NCC(=O)NCC(N)=O)C(C)C,,,"human, plasma","intravenous infusion, 200 mg, 2 h",,plasma concentration,262 ng/mL
C=CC(C)(C)c1[nH]cnc1/C=C1/NC(=O)[C@H](C(C)C)NC1=O,L-02,SRB,,,,CC50,7.32 µM
Nc1ncnc2c1ncn2[C@H]1C[C@H](O)[C@@H](COP(=O)(O)OP(=O)(O)OP(=O)(O)O)O1,,"binding, equilibrium dialysis LC-MS",,"5 µM, thermostabilized A2AR-BRIL construct","baseline: no-protein control, direction not given",z-scored log2 fold change,-0.109
CCSc1c(-c2nc3ccccc3s2)c(N)n(NS(=O)(=O)c2ccc(C)cc2)c(=O)c1C#N,HEp-2,,,72 h,,maximum non-toxic concentration,120 µg/mL
CO[C@@H]1[C@H](OC(=O)/C=C/C=C/C=C/C=C/C(=O)O)CC[C@]2(CO2)[C@H]1[C@@]1(C)O[C@@H]1CC=C(C)C,LMH chicken hepatoma cells,,,,,CC50,~200 µM
CNCCCN1c2ccccc2CCc2ccccc21,HepaRG,"cytotoxicity, CellTiter-Glo",,24 h,,EC50,72.9 µM
O=c1[nH]cc(F)c(=O)[nH]1,H460,CCK-8,,"50 µM, 72 h",baseline: control,viability,35.2 ± 2.02%
CC(=O)N[C@H]1C(O)O[C@H](CO)[C@@H](O)[C@@H]1O[C@H](C)C(=O)O (stereo partly shown),,"binding, equilibrium dialysis LC-MS",,"5 µM, thermostabilized A2AR-BRIL construct","baseline: no-protein control, direction not given",z-scored log2 fold change,-0.494
O=C(O)CNc1ncccn1,"Ubiquitin carboxyl-terminal hydrolase 49, ZnF-UBD domain (USP49, Homo sapiens, UniProt Q70CQ1)",,,,,Kd,> 1000 µM
Cc1ccc(S(=O)(=O)Nc2ncc(-c3nc4ccccc4s3)c(N)n2)cc1,HEp-2,cytotoxicity,,72 h,,maximum non-toxic concentration,110 µg/mL
CC(C)C[C@H](NC(=O)C[C@H](O)[C@H](CC(C)C)NC(=O)[C@H](Cc1c[nH]cn1)NC(=O)CNC(=O)[C@@H](NC(=O)[C@H](C)NC(=O)[C@H](Cc1c[nH]c2ccccc12)NC(=O)[C@H](CCC(N)=O)NC(=O)[C@@H](Cc1ccccc1)NC(=O)COCCOCCNC(=O)CCC(C(=O)O)N1CCN(CC(=O)O)CCN(CC(=O)O)CCN(CC(=O)O)CC1)C(C)C)C(N)=O (stereo partly shown) [lutetium-177 labelled],,,"female BALB/c nu/nu mice, muscle","intravenous, 50 pmol, 1 h",,tissue uptake,0.13 ± 0.04 %ID/g
Cc1nc(C)c(Cl)c(O)c1Cl,LMH chicken hepatoma cells,,,,,CC50,42.5 µM
CC[C@]1(O)C[C@H]2CN(CCc3c([nH]c4ccccc34)[C@@](C(=O)OC)(c3cc4c(cc3OC)N(C=O)[C@H]3[C@@](O)(C(=O)OC)[C@H](OC(C)=O)[C@]5(CC)C=CCN6CC[C@]43[C@@H]65)C2)C1,CHP-212 resistant subline R2 (heterozygous USP7 V517F),cell viability,,1111.11 nM,,viability,15.7% and 12.9% and 11.9%
C[C@]12CC[C@@H]3c4ccc(O)cc4C[C@@H](CCCCCCCCC[S+]([O-])CCCC(F)(F)C(F)(F)F)[C@H]3[C@@H]1CC[C@@H]2O (stereo partly shown),T47D,CCK-8,,20 nM,baseline: untreated,viability,84.7% and 83.5% and 76.2%
Cc1ccc(S(=O)(=O)Nn2c(N)c(C#N)cc(C#N)c2=O)cc1,HEp-2,,,72 h,,maximum non-toxic concentration,90 µg/mL
CO[C@@]12[C@H](COC(N)=O)C3=C(C(=O)C(C)=C(N)C3=O)N1C[C@@H]1N[C@@H]12,human peripheral blood lymphocytes,,,"0.125 µg/mL, 24 h, without S9",,cytostasis,23%
CC(=O)OC[C@H]1O[C@@H]([S-])[C@H](OC(C)=O)[C@@H](OC(C)=O)[C@@H]1OC(C)=O.CCP(CC)CC.[Au+],differentiated THP-1,,,72 h,baseline: THP-1 CC50 over EC50,selectivity index,1
Cc1ccc(-c2nc(N)nc(N)c2-c2nc3ccccc3s2)cc1,HEp-2,cytotoxicity,,72 h,,maximum non-toxic concentration,110 µg/mL
N#C[C@@]1(c2ccc3c(N)ncnn23)O[C@H](CO)[C@@H](O)[C@H]1O,primary human hepatocytes,"spare respiratory capacity, Seahorse OCR",,4 h,,CC50,> 100 µM
Cc1cc(C)c(CNC(=O)c2cc(Cl)c3c(c2C)O[C@@](C)([C@H]2CC[C@H](N(C)C)CC2)O3)c(=O)[nH]1,Caco-2,,,3 µM,,Papp A to B,0.405 ± 0.031 ×10⁻⁶ cm/s
CCc1oc2cc(S(=O)(=O)Nc3ccc(S(=O)(=O)Nc4nccs4)cc3)ccc2c1C(=O)c1cc(Br)c(O)c(Br)c1,T47D,annexin V/PI flow cytometry,,"40 µM, 72 h",,necrotic cells,2.16 ± 0.87%
Nc1n[n+]([O-])c2ccccc2[n+]1[O-],A549,,,4 h anoxic,baseline: oxic IC50 over anoxic IC50,hypoxic cytotoxicity ratio,> 31.6
COc1ccc(-c2nc(NS(=O)(=O)c3ccc(C)cc3)nc(N)c2-c2nc3ccccc3s2)cc1,HEp-2,cytotoxicity,,72 h,,maximum non-toxic concentration,90 µg/mL
Cc1cc(C(=O)NC(C)(C)COc2cccc3c2C(N)=NS(=O)(=O)N3)cc(C)n1,human peripheral blood lymphocytes,"CBPI, preliminary test",,"0.6 µg/mL, 24 h",baseline: vehicle control,cytotoxicity,9%
CCCCCCNc1nc(NC2CCN(C)CC2)c2cc(OC)c(OC)cc2n1,differentiated THP-1,,,72 h,baseline: THP-1 CC50 over EC50,selectivity index,0.5
Fc1cccc(N/N=C/c2ccc(-c3cccc(/C=N/Nc4cccc(F)c4)c3)cc2)c1,A549,,,15.5 µg/mL,,cytotoxicity,not toxic
CSc1nc(NS(=O)(=O)c2ccc(C)cc2)nc(N)c1-c1nc2ccccc2s1,HEp-2,cytotoxicity,,72 h,,maximum non-toxic concentration,100 µg/mL
NS(=O)(=O)c1cnc(NC(=O)CC2CCCCC2)s1,"Alpha-carbonic anhydrase (Enterococcus faecium, UniProt Q3XYE8)","CO2 hydration, inhibitor, stopped-flow kinetics",,,,Ki,0.77 µM
Nc1nc(NS(=O)(=O)c2ccccc2)nc(-c2ccccc2)c1-c1nc2ccccc2s1,HEp-2,cytotoxicity,,72 h,,maximum non-toxic concentration,90 µg/mL
Cc1noc(C)c1Cn1cc(N2C(=O)CN(Cc3cccc(O)c3)C2=O)cn1,human blood lymphocytes,,,"1300 µg/mL, 3 h, with 5% S9",,aberrant cells with gaps,6%
CCCC(CCC)NC(=O)c1ccc2c(c1)OCO2,CHO-WBL,,,"0.56 mg/mL, 3 h, with rat liver S9",,relative mitotic index,109%
CCOCc1nc2c(N)nc3ccccc3c2n1CC(C)(C)O,Ramos,,,up to 30 µM,,cytotoxicity,not toxic
NC(=O)c1ncn([C@@H]2O[C@H](CO)[C@@H](O)[C@H]2O)n1,BHK-D2-Rluc,MTT,,48 (unit not given),,CC50,> 100 µM
C[C@@H](c1ccc2nccn2c1)n1nnc2ncc(-c3cnn(C)c3)nc21,primary human hepatocytes,item: CYP3A4,,"concentration not given, 48 h",baseline: rifampicin,mRNA induction,7.7 to 16%
c1csc(CNc2cc[nH]n2)c1,human peripheral blood lymphocytes,,,"225 µg/mL, 20 h",,numerical aberration cells,0%
CCOC(=O)c1cc(C#N)c(=O)n(NS(=O)(=O)c2ccccc2)c1N,HEp-2,,,72 h,,maximum non-toxic concentration,90 µg/mL
COc1cc(C2=CCCc3c2ccc(OC)c3OCc2ccc([N+](=O)[O-])o2)cc(OC)c1OC,A549,,,4 h anoxic,baseline: oxic IC50 over anoxic IC50,hypoxic cytotoxicity ratio,0.7
CC[C@]1(O)C[C@@H]2CN(CCc3c([nH]c4ccccc34)[C@@](C(=O)OC)(c3cc4c(cc3OC)N(C)[C@H]3[C@@](O)(C(=O)OC)[C@H](OC(C)=O)[C@]5(CC)C=CCN6CC[C@]43[C@@H]65)C2)C1,human peripheral blood lymphocytes,"CBPI, micronucleus test",,"10 ng/mL, 24 h, without S9",baseline: vehicle,cytotoxicity,76%
CSc1c(-c2nc3ccccc3s2)c(N)n(NS(=O)(=O)c2ccc(C)cc2)c(=O)c1C#N,HEp-2,,,72 h,,maximum non-toxic concentration,110 µg/mL
O=C(CNc1nc(NS(=O)(=O)c2ccccc2)ncc1-c1nc2ccccc2s1)c1ccc(Br)cc1,HEp-2,cytotoxicity,,72 h,,maximum non-toxic concentration,120 µg/mL
Cc1ncc([N+](=O)[O-])n1CCO,LMH chicken hepatoma cells,,,,,CC50,~200 µM
Cc1ccc(C(=O)O)cc1S(=O)(=O)Nc1cccc(C(=O)CCC(=O)O)c1,"Ubiquitin carboxyl-terminal hydrolase 39, ZnF-UBD domain (Homo sapiens, UniProt Q53GS9)",,,,,Kd,942 µM
Clc1cccc(COc2ccccc2CNCc2ccccc2)c1,HEK293,,,,,cytotoxic concentration,> 12.5 µM

# For quick reference, copied from above:
Compound,tested on,test,system,setting,scale,endpoint,result
Cc1noc(C)c1Cn1cc(N2C(=O)CN(Cc3cccc(O)c3)C2=O)cn1,human blood lymphocytes,,,"1300 µg/mL, 3 h, with 5% S9",,aberrant cells with gaps,6%
CCCC(CCC)NC(=O)c1ccc2c(c1)OCO2,CHO-WBL,,,"0.56 mg/mL, 3 h, with rat liver S9",,relative mitotic index,109%
CCOCc1nc2c(N)nc3ccccc3c2n1CC(C)(C)O,Ramos,,,up to 30 µM,,cytotoxicity,not toxic
NC(=O)c1ncn([C@@H]2O[C@H](CO)[C@@H](O)[C@H]2O)n1,BHK-D2-Rluc,MTT,,48 (unit not given),,CC50,> 100 µM
C[C@@H](c1ccc2nccn2c1)n1nnc2ncc(-c3cnn(C)c3)nc21,primary human hepatocytes,item: CYP3A4,,"concentration not given, 48 h",baseline: rifampicin,mRNA induction,7.7 to 16%
c1csc(CNc2cc[nH]n2)c1,human peripheral blood lymphocytes,,,"225 µg/mL, 20 h",,numerical aberration cells,0%
CCOC(=O)c1cc(C#N)c(=O)n(NS(=O)(=O)c2ccccc2)c1N,HEp-2,,,72 h,,maximum non-toxic concentration,90 µg/mL
